Measured values collected from several papers.
Each line is one published result; not all experiments were run side by side.
Potassium/sodium hyperpolarization-activated cyclic nucleotide-gated channel 1: Potassium/sodium hyperpolarization-activated cyclic nucleotide-gated channel 1 (Homo sapiens, UniProt O60741)
UniProt O60741, sequence (whole entry, looked up): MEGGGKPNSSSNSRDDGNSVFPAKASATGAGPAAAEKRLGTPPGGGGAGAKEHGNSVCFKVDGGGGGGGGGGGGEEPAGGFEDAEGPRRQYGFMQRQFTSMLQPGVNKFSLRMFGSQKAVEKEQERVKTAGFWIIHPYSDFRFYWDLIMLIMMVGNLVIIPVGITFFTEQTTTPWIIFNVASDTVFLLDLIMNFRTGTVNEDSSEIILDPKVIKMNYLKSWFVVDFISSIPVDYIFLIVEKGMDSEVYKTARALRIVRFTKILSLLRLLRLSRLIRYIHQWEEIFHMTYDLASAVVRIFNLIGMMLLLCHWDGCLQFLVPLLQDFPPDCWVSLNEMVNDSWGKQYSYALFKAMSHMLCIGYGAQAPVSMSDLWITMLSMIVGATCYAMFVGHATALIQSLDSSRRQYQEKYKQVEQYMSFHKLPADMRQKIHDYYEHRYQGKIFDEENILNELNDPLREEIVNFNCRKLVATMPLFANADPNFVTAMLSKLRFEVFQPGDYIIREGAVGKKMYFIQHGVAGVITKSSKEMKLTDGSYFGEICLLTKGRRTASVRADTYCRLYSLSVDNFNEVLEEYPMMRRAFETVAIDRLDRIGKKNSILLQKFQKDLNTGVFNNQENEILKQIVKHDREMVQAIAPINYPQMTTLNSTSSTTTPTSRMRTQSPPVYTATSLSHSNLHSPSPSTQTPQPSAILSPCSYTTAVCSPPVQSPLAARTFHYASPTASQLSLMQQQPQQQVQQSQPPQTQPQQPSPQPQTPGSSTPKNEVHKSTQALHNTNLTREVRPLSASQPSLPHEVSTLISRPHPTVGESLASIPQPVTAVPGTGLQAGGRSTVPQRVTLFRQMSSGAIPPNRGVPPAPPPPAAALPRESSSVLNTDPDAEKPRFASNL
PPO3: PPO3 (Agaricus bisporus, UniProt C7FF04)
UniProt C7FF04, sequence (whole entry, looked up): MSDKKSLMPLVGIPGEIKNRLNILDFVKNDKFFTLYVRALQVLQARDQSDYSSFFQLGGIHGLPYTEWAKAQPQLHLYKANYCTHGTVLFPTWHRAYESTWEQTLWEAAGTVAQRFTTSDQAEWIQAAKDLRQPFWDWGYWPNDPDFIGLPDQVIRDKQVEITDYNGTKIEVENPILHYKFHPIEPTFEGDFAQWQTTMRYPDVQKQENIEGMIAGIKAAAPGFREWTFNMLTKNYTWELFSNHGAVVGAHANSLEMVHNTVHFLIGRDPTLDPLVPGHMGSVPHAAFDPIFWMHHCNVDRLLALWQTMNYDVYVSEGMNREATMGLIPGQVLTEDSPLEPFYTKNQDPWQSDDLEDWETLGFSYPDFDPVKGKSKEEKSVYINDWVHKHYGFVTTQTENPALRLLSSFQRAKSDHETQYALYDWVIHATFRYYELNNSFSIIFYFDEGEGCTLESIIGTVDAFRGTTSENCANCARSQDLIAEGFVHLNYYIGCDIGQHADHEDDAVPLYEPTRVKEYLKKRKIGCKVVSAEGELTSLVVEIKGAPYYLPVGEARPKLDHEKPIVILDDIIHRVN
UniProt Q01959, sequence (whole entry, looked up): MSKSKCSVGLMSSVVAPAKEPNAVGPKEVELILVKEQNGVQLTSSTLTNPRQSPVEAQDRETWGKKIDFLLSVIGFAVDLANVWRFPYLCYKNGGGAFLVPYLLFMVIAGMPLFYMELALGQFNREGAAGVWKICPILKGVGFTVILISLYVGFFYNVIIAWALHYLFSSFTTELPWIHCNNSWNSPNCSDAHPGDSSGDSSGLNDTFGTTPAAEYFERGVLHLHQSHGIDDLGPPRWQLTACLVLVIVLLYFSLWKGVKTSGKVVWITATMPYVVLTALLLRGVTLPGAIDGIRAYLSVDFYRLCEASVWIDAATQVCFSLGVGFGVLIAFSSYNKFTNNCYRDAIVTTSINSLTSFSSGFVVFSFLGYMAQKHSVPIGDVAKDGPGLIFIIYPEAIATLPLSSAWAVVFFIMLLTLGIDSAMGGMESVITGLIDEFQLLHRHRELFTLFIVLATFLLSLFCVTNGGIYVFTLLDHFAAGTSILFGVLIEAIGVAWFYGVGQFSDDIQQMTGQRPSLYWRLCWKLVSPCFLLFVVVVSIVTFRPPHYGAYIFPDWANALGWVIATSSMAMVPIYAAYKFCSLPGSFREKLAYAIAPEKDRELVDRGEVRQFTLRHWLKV
UniProt Q9UKP6, sequence (whole entry, looked up): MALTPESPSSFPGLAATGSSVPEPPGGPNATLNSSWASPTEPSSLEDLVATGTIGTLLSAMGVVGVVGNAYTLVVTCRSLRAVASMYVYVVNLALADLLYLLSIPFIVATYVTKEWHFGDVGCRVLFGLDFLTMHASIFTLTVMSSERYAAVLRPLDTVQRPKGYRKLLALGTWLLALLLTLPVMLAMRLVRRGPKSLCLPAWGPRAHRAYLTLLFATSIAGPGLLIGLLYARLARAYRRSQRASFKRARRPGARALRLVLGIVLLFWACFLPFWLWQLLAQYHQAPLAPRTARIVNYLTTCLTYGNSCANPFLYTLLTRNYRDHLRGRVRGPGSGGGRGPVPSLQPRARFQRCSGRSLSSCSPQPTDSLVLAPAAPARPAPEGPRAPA
UniProt P07550, sequence (whole entry, looked up): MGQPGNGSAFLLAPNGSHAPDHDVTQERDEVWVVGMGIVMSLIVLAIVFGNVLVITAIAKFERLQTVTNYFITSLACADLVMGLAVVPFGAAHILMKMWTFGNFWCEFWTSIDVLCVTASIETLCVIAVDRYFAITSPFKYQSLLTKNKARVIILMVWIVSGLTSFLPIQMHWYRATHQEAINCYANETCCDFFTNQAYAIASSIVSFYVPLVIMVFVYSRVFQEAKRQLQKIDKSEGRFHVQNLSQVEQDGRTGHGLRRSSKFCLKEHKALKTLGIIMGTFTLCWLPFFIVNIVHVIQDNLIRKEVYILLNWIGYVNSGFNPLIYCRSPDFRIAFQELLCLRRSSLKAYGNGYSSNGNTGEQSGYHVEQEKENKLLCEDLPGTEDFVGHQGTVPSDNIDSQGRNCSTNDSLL
UniProt P03372, sequence (whole entry, looked up): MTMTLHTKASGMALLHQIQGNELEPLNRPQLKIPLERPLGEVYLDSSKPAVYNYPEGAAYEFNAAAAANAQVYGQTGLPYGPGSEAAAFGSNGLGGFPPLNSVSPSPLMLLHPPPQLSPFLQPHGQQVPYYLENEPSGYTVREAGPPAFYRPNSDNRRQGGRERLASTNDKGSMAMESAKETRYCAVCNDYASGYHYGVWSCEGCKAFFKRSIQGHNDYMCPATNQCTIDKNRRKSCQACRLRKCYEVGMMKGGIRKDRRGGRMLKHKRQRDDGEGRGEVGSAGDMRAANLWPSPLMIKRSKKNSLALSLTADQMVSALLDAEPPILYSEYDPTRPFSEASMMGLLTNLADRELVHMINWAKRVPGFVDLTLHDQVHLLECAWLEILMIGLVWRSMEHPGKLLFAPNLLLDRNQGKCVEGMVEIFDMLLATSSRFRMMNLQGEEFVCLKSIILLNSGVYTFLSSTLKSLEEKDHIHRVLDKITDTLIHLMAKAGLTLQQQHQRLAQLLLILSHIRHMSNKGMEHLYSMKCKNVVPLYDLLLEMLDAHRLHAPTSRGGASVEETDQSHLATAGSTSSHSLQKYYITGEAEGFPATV
UniProt P33535, sequence (whole entry, looked up): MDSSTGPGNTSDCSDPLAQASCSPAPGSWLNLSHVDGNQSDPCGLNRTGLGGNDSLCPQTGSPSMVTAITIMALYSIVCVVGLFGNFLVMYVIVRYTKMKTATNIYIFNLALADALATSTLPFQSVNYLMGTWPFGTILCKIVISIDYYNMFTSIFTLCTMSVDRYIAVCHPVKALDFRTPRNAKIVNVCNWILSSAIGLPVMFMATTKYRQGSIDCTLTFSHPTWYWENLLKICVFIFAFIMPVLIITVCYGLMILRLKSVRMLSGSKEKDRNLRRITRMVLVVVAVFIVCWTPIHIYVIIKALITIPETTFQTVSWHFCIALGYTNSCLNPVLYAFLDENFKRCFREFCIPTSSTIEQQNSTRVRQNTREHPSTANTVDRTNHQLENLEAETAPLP
UniProt Q5U3Y7, sequence (whole entry, looked up): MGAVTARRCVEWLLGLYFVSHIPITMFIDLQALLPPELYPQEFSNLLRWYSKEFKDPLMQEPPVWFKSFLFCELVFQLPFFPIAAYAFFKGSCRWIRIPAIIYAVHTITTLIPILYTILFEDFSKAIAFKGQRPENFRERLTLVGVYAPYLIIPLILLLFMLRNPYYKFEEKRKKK
UniProt O43148, sequence (whole entry, looked up): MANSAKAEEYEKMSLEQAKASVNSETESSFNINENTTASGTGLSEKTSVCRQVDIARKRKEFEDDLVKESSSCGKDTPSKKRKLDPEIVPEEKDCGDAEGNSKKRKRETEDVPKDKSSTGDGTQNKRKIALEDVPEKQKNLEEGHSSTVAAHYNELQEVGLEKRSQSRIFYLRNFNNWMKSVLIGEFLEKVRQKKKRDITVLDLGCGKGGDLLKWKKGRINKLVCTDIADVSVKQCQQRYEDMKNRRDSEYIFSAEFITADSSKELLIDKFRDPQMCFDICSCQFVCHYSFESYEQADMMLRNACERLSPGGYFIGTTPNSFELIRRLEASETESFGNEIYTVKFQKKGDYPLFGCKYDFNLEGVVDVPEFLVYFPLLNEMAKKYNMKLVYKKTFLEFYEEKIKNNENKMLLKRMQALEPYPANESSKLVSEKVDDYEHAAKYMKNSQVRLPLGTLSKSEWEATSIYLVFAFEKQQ
UniProt Q02750, sequence (whole entry, looked up): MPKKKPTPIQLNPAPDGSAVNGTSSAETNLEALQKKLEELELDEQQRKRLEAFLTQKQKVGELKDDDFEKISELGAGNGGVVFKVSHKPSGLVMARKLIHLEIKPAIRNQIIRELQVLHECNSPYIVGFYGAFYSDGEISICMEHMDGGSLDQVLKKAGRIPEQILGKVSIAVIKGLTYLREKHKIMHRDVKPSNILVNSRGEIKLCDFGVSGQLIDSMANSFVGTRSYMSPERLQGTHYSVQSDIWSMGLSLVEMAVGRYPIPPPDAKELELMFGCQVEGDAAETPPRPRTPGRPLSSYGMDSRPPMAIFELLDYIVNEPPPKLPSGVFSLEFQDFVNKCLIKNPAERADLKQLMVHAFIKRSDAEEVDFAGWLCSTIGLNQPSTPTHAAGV

Structure (SMILES) | target | assay | conditions | quantity | value
CC(C)C[C@H]1C(=O)N2CCC[C@H]2[C@]2(O)O[C@](NC(=O)[C@@H]3C=C4c5cccc6[nH]c(Br)c(c56)C[C@H]4[N+](C)(C)C3)(C(C)C)C(=O)N12 | Mu-type opioid receptor (Oprm1, Rattus norvegicus, UniProt P33535) | ligand displacement, radioligand | 10 µM | inhibition | 72%
[2H]c1c([2H])c([C@]2([2H])CCCN2C(=O)C(C)(C)Oc2ccc3cn[nH]c3c2)c([2H])c([2H])c1C([2H])([2H])[2H] | Myosin light chain kinase, smooth muscle (MYLK, Homo sapiens, UniProt Q15746) | binding, competition with immobilised ligand | 1 µM | remaining binding | 77%
C#Cc1n[nH]c2c(-c3cn(C(C)c4ccccn4)c(=O)[nH]c3=O)cc(F)cc12 (stereo not shown) | Dual specificity mitogen-activated protein kinase kinase 1 (MAP2K1, Homo sapiens, UniProt Q02750) | enzyme activity, inhibitor | 1 µM | inhibition | 17.2%
Cn1cc(-c2cccc(N3CCc4c(sc5c4CC(C)(C)C5)C3=O)c2CO)cc(Nc2ccncn2)c1=O | Platelet-derived growth factor receptor alpha (PDGFRA, Homo sapiens, UniProt P16234, D842V) | enzyme activity, inhibitor | 1 µM | inhibition | 0%
COc1cc2c(cc1OC)-c1c(OC)c(OC)cc3c1[C@H](C2)N(C)CC3 (racemic) | 5-hydroxytryptamine receptor 2B (HTR2B, Homo sapiens, UniProt P41595) | ligand displacement, radioligand | 10 µM | inhibition | 87%
Cn1c(=O)c2[nH]cnc2n(C)c1=O | Potassium/sodium hyperpolarization-activated cyclic nucleotide-gated channel 1 | ion current, inhibitor | 30 µM | inhibition | 10.3%
CCCCC(=O)N(Cc1ccc(-c2ccccc2-c2nnn[nH]2)cc1)[C@H](C(=O)O)C(C)C | Solute carrier family 22 member 11 (SLC22A11, Homo sapiens, UniProt Q9NSA0) | transporter uptake, inhibitor | 25 µM | inhibition | 50 to 90%
O=C1NC(=O)C(c2ccccc2)(c2ccccc2)N1 | Potassium/sodium hyperpolarization-activated cyclic nucleotide-gated channel 1 | ion current, inhibitor | 10 µM | inhibition | -0.413%
CCC(CNc1nc(-c2cn3ccnc3cc2C)nc2ccccc12)c1ccccc1 (stereo not shown) | Sodium-dependent dopamine transporter (SLC6A3, Homo sapiens, UniProt Q01959) | transporter uptake, inhibitor, radiometric | 10 µM | inhibition | 40.2%
CC(C)NCC(O)COc1cccc2ccccc12 (stereo not shown) | Potassium/sodium hyperpolarization-activated cyclic nucleotide-gated channel 1 | ion current, inhibitor | 30 µM | inhibition | 2.99%
COc1cc(/C=C/C(=O)O)ccc1OCc1cn(CC(=O)Nc2cccc(C)c2)nn1 | PPO3 | enzyme activity, inhibitor | 40 µM | inhibition | 13.5%
Nc1ncnc2c1ncn2[C@@H]1O[C@H](C[C@@H](N)CC[C@H](N)C(=O)O)[C@@H](O)[C@H]1O | mRNA cap guanine-N(7) methyltransferase (RNMT, Homo sapiens, UniProt O43148) | enzyme activity, inhibitor | 0.1953 µM | inhibition | 13.9%
c1cncc([C@@H]2CCCN2)c1 | 5-hydroxytryptamine receptor 1B (HTR1B, Homo sapiens, UniProt P28222) | ligand displacement | 50 µM | inhibition | 7.36%
Nc1c(Br)cc(Br)cc1CN[C@H]1CC[C@H](O)CC1 | Potassium/sodium hyperpolarization-activated cyclic nucleotide-gated channel 1 | ion current, inhibitor | 30 µM | inhibition | -0.65%
CN1CCC[C@H]1c1cccnc1 | Beta-2 adrenergic receptor (ADRB2, Homo sapiens, UniProt P07550) | ligand displacement | 50 µM | inhibition | -3.36%
CCCN1C[C@H](CSC)C[C@@H]2c3cccc4[nH]cc(c34)C[C@H]21 | Potassium/sodium hyperpolarization-activated cyclic nucleotide-gated channel 1 | ion current, inhibitor | 10 µM | inhibition | 4.55%
Cc1ncc2c(n1)[C@H](C)[C@@H]1C[C@H]2[C@@](C)(O)CN1Cc1ccccc1 | Sigma intracellular receptor 2 (Tmem97, Rattus norvegicus, UniProt Q5U3Y7) | ligand displacement, radioligand | 1 µM | inhibition | 0%
COc1cc(/C=C/C(=O)O)ccc1OCc1cn(CC(=O)Nc2ccc(C)cc2)nn1 | PPO3 | enzyme activity, inhibitor | 40 µM | inhibition | 13.2%
Nc1ccncc1 | Potassium/sodium hyperpolarization-activated cyclic nucleotide-gated channel 1 | ion current, inhibitor | 10 µM | inhibition | -436%
O=C(Nc1cccnn1)N1CCN([C@@H]2CCOc3cc(C(F)(F)F)ccc32)CC1 | Urotensin-2 receptor (UTS2R, Homo sapiens, UniProt Q9UKP6) | cell-free assay | 20 µM | inhibition | 26%
CC12CC3CC(C)(C1)CC(N)(C3)C2 | Potassium/sodium hyperpolarization-activated cyclic nucleotide-gated channel 1 | ion current, inhibitor | 10 µM | inhibition | 5.57%
CC(C)CC(=O)OC[C@H]1O[C@@](C#N)(c2ccc3c(N)ncnn23)[C@H](O)[C@@H]1O | Estrogen receptor (ESR1, Homo sapiens, UniProt P03372) | cell-free assay | 20 µM | inhibition | -2%

Some of these lines once more:
Structure (SMILES) | target | assay | conditions | quantity | value
Cn1c(=O)c2[nH]cnc2n(C)c1=O | Potassium/sodium hyperpolarization-activated cyclic nucleotide-gated channel 1 | ion current, inhibitor | 30 µM | inhibition | 10.3%
